Measured values pooled from the literature.
Each numbered part is a random draw from the data of one study; scales do not carry over between parts. Positions count from the first letter of the parent shown.

Study 1
Target: CCND2, cyclin fold, Cln2 fusion (human)
Method: yeast growth competition, sequencing
Matrix: yeast
Setting: weak parent motif
Baseline: not given
Reading: higher = stronger binding
Starting sequence: CDT1 docking peptide (human); PPARRRLRLSVDE; partner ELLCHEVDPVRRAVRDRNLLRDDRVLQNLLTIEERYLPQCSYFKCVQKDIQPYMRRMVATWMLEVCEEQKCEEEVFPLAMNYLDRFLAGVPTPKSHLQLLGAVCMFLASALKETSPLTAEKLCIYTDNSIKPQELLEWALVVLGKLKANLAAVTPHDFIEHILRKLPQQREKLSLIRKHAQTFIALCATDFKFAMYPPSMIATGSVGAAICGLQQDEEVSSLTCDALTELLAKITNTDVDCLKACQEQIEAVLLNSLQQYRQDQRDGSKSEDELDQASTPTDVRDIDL
`PPARKRLRFSVDE [R5K L9F]` — result for “normalised enrichment score”: 0.498.
`PPARRRLALSVDE [R8A]` — result for “normalised enrichment score”: 0.163.
`PPARRRLRASVDE [L9A]` — result for “normalised enrichment score”: 0.248.
`PPARRRLRLAVDE [S10A]` — result for “normalised enrichment score”: -0.253.
`PPARRRLRLSVDA [E13A]` — result for “normalised enrichment score”: 0.331.
Under “normalised enrichment score”, `PPARRRARLSVDE [L7A]` is recorded as 0.318.
`PPARARLRLSVDE [R5A]`: “normalised enrichment score” 0.08.

Study 2
Target: ABI1, truncated, D143A, DHFR fusion (Arabidopsis thaliana)
Method: DHFR PCA, deep sequencing
Matrix: yeast
Setting: methotrexate growth selection, single substitutions
With: (+)-ABA 0.11 µM
Baseline: wild-type fitted maximum
Reading: higher = stronger binding
Starting sequence: PYL1, truncated, DHFR fusion (Arabidopsis thaliana); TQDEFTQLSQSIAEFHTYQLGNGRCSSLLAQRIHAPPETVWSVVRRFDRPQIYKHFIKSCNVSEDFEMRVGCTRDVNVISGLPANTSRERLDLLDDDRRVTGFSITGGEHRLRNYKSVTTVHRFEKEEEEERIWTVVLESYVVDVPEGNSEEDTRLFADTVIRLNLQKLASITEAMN; partner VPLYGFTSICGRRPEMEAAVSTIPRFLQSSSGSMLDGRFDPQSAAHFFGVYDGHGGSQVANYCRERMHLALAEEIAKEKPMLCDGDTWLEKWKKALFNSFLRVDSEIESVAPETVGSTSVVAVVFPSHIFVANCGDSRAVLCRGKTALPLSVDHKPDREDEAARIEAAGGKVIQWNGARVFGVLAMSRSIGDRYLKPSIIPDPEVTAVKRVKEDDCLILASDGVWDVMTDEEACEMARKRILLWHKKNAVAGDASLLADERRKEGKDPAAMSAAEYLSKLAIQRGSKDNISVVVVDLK
`D92P` — result for “relative binding score”: -10.3%.
`E64Y`: “relative binding score” 3.83%.
`H34E`: “relative binding score” 40.3%.
For `T154V`, “relative binding score” read 41.3%.
Under “relative binding score”, `L138H` is recorded as 1.45%.
`V161I` — result for “relative binding score”: 75.7%.
`E125S`: “relative binding score” 45.8%.
`R99I` — result for “relative binding score”: -1.85%.
`L94H` — result for “relative binding score”: 9.39%.
Under “relative binding score”, `L112Q` is recorded as -1.77%.
For `V136C`, “relative binding score” read 0.888%.
Under “relative binding score”, `E64S` is recorded as 34.8%.
Under “relative binding score”, `D97F` is recorded as 2.73%.
Under “relative binding score”, `V100N` is recorded as -10%.
Under “relative binding score”, `S59R` is recorded as 0.831%.
`H34F`: “relative binding score” 24.2%.
`D159Y` — result for “relative binding score”: -2.44%.

Study 3
Target: CREB3L4, bZIP domain (human)
Method: DHFR protein complementation
Matrix: yeast
Setting: single substitutions, most at no-binding floor
Baseline: wild-type JUN-FOS pair
Reading: higher = stronger binding
Starting sequence: JUN, bZIP domain (human); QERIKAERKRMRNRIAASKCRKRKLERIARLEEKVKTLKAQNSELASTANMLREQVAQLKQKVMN; partner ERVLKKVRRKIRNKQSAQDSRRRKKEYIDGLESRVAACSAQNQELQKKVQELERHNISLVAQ
For `E54C`, the binding fitness was -1.56 natural log.
With `V56S` the binding fitness was -1.41 natural log.
`R53V` has a binding fitness of -1.57 natural log.
With `L31T` the binding fitness was -1.56 natural log.
`E44H` has a binding fitness of -1.42 natural log.
With `V35Y` the binding fitness was -1.53 natural log.
`T48C` gave a binding fitness of -1.54 natural log.
With `A46I` the binding fitness was -1.4 natural log.
`K36G` has a binding fitness of -1.43 natural log.
The binding fitness of `N42Y` is reported as -1.42 natural log.
With `V56E` the binding fitness was -1.47 natural log.
`A49L` has a binding fitness of -1.47 natural log.

Study 4
Target: Ras GTPase-activating protein-binding protein 1, C-terminal RGG region (G3BP1, Homo sapiens, UniProt Q13283)
UniProt Q13283, sequence (whole entry, looked up): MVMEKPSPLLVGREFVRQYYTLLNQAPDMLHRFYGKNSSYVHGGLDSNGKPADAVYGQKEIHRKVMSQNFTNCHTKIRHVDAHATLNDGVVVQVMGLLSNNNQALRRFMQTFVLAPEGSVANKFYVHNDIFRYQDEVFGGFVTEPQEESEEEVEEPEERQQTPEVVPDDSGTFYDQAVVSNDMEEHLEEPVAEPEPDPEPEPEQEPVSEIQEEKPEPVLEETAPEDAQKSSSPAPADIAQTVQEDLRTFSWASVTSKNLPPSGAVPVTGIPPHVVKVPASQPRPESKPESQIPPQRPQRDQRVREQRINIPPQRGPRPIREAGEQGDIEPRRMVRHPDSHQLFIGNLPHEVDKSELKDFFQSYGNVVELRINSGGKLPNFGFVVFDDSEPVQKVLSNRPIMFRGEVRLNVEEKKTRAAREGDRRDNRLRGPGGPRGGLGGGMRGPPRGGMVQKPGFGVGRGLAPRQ
Method: RNA Bind-n-Seq
Molecule type: RNA
Matrix: in vitro
Tested at: 1 µM
Setting: whole 134-nt RNA, ends assumed
With: 150 mM KCl
Baseline: input library
Reading: higher = stronger binding
With `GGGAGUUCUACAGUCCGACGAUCUAACUUUAGAGGAGGAUCUGAUGGAUCUGGCAGUGGACGUGGAUUUGGGGAUGGCUAUAAUGGGUAUGGAGGAGGACCUGGAGGUGGCAAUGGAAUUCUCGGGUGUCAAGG` the log2 enrichment was -1.49.
`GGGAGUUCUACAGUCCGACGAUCAAGUCCUGUGCUACACAUCGUAUGUACCGAAUCGGAAAAAGGAAAAAGGGAAAAAGGAAAGUAUUAUGUUACGCCGUUCGGAUCUGCACUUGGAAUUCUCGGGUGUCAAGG` has a log2 enrichment of -1.94.
With `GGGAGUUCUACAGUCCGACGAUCCCUCAAGUCCUGUGCUACACAUCGUAUGUACCGAAUCGGGCGGGCGGGGCGGGAAAGUAUUAUGUUACGCCGUUCGGAUCUGCACUUCCAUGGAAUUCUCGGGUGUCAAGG` the log2 enrichment was 2.25.
`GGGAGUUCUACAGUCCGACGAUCUCGGAUGGCUUCGCAUUUCCCCAAUACCCCAUUAAACCGUAUCAUCUGAAGAGGAUCCACAGAGCUGUCUUACAUGGUAAUCUAGAGAAAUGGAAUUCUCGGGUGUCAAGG` has a log2 enrichment of -0.797.
`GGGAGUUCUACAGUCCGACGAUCCUCAAGUCCUGUGCUACACAUCGUAUGUACCGAAUCGGAGGAGGUUUUUUUGGAAAGUAUUAUGUUACGCCGUUCGGAUCUGCACUUCCAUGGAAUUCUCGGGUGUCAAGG` has a log2 enrichment of -1.23.
The log2 enrichment of `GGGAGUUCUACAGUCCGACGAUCCAAGUCCUGUGCUACACAUCGUAUGUACCGAAUCGGGUGGGAGGGAAAAAAAGGGAAAGUAUUAUGUUACGCCGUUCGGAUCUGCACUUCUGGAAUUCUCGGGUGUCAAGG` is reported as 0.152.
With `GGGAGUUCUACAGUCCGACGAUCAAGUCCUGUGCUACACAUCGUAUGUACCGAAUCGGGAAAAAGGGAAAGGGAAAGGGAAAGUAUUAUGUUACGCCGUUCGGAUCUGCACUUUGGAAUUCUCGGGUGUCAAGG` the log2 enrichment was 0.67.
For `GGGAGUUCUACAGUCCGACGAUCGUCCUGUGCUACACAUCGUAUGUACCGAAUCGGGGUUUUUGGGGAAAGGGGAAAGGGGAAAGUAUUAUGUUACGCCGUUCGGAUCUGCACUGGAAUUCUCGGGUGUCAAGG`, the log2 enrichment was 3.68.
`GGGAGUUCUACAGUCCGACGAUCAGUCCUGUGCUACACAUCGUAUGUACCGAAUCGGGGUUUGGGGAGGGGUUUUUGGGGAAAGUAUUAUGUUACGCCGUUCGGAUCUGCACUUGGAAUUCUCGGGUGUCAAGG` gave a log2 enrichment of 1.65.
`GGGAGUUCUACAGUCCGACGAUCGCAGGAAGUAAAAACAAAUGGAAAUGCUUCGGAUAGUGGCAGGGGUGGGGGUUGCUAAGGAAAGGGUGGGAUGGGAGUGGGUAAAGACUUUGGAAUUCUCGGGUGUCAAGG` gave a log2 enrichment of 0.454.

Study 5
Target: Interferon regulatory factor 7, full length, phosphomimetic (IRF7, Homo sapiens, UniProt Q92985, residues 1-503, S471D/S472D/S475D/S476D/S477D/S483D/S484D/S487D)
Method: protein-binding microarray
Molecule type: double-stranded DNA, one strand shown
Matrix: in vitro
Tested at: 2200 nM top
Setting: 60-bp whole probe
With: salmon DNA 0.4 mg/ml
Baseline: random background probes
Reading: higher = stronger binding
Shared flanks, not repeated: GCCTAGCAC … GTCTTGATTCGCTTGACGCTGCTG
Target sequence (chain): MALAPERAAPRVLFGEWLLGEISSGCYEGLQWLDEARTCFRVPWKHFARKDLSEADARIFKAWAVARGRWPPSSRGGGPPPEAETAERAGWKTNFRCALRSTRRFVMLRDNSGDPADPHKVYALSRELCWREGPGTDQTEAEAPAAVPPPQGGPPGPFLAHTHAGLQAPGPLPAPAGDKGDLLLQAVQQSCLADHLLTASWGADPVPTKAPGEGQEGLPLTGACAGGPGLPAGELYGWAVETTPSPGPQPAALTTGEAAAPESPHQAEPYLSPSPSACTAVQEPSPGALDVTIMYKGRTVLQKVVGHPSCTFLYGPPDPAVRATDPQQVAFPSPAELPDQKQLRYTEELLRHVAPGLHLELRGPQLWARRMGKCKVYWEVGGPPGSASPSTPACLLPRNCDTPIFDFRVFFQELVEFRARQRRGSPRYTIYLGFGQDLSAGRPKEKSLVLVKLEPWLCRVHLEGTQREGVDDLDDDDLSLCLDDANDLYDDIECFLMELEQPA
`TTAGATATTAGTCTCGATTAGTGCTAG`: “fitted relative affinity” 0.354 z-score.
`TTAGATATCGGGTTTGGATTAGTGCTA`: “fitted relative affinity” 0.426 z-score.
`GACGTTATCGACTATCGGGACGTGCTA`: “fitted relative affinity” 0.292 z-score.
`TTAGATATCGCGACTGGATTAGTGCTA`: “fitted relative affinity” 0.0365 z-score.
Under “fitted relative affinity”, `TCATACTTCTGTTTTTGACTGTGCTAG` is recorded as 2.06 z-score.
For `TCACTTTCAGTTTTCCTACTGTGCTAG`, “fitted relative affinity” read 9.9 z-score.
For `TTAGAACTGGGGTATCGAGTAGTGCTA`, “fitted relative affinity” read -0.0279 z-score.
Under “fitted relative affinity”, `GACAGTTTCGACTTTCGGGACGTGCTA` is recorded as 10.4 z-score.
For `TTAGGTCTCGGTATCGGTGAGTGCTAG`, “fitted relative affinity” read 0.37 z-score.
`GACGGAATCGGGACTGGGGACGTGCTA`: “fitted relative affinity” -0.446 z-score.
`TTAGATATCGGGTTTCGATTGGTGCTA` — result for “fitted relative affinity”: 4.51 z-score.
`CGGCTACCGCGGCTCCTACAGTGCTAG`: “fitted relative affinity” -0.587 z-score.
`CTAAAAATCCCATTAAATTTGTGCTAG`: “fitted relative affinity” -0.544 z-score.
Under “fitted relative affinity”, `GCGGTTGGATCACAAGGTCAGTGCTAG` is recorded as 0.418 z-score.
`GAAGATATCGGGTTTCGAGACGTGCTA`: “fitted relative affinity” 1.57 z-score.
Under “fitted relative affinity”, `TTAGATTCCAGTTTCCATTAGTGCTAG` is recorded as 3.37 z-score.
`CTTTCTTTTTTTCTTTTATTGTGCTAG`: “fitted relative affinity” 5.99 z-score.
For `CTCTCTTTCCAACTCTGTTTGTGCTAG`, “fitted relative affinity” read 3.18 z-score.
`GACGGGATCGGTATCGGGACGTGCTAG`: “fitted relative affinity” -0.499 z-score.
`TTGTCTCTGTCCCTGTTTCTGTGCTAG`: “fitted relative affinity” 2.55 z-score.

Other studies, line by line
`PhoQ, residues 284 288 289 292 302 303 ALASRC` gave a fold induction of 17.8 (PhoP, residues 12 14 15 18 19 IQFRS (Escherichia coli, UniProt P23836); Sort-seq, refers to: YFP reporter; E. coli; PhoQ-PhoP variant library, with: 10 µM Mg2+; baseline: high Mg2+ state, higher = stronger signaling).
